Measured values gathered from unrelated publications.
Each line is one published result; not all experiments were run side by side. Values joined by “and” are separate records of one study, mostly repeats; a detail may differ. ± gives the spread as reported.
TAGLN: Transgelin (TAGLN, Homo sapiens, UniProt Q01995)
Chain of UniProt Q01995 (whole entry, looked up): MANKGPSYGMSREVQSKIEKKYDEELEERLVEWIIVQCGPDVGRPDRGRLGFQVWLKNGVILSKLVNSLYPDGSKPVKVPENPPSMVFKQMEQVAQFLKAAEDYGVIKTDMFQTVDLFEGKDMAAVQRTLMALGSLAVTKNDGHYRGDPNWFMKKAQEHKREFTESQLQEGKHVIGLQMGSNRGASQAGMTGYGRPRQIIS
VHL/BRD9: VHL/BRD9 (Homo sapiens, UniProt P40337+Q9H8M2)
Chain of UniProt Q9H4M9 (whole entry, looked up): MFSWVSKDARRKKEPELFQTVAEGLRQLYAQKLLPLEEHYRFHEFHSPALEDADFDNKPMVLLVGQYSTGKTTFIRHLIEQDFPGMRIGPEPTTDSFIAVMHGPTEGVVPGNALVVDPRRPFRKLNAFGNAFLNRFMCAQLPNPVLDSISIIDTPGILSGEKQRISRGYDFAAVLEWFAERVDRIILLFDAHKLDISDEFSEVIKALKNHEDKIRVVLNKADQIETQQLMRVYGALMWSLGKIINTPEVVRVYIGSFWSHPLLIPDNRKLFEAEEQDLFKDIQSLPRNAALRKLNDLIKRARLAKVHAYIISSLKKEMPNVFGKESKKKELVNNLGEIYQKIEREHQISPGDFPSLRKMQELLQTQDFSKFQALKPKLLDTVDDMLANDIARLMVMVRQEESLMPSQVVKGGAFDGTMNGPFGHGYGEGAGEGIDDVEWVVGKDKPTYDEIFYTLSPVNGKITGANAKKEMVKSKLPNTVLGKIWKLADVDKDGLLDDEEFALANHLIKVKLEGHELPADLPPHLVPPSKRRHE
Chain of UniProt P40337 (whole entry, looked up): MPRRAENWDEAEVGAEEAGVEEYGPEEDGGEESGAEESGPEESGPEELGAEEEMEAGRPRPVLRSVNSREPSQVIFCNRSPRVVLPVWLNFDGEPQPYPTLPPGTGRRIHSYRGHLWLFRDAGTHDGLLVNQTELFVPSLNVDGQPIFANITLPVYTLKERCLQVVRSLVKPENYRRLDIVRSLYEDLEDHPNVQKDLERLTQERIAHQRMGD
Chain of UniProt Q9H8M2 (whole entry, looked up): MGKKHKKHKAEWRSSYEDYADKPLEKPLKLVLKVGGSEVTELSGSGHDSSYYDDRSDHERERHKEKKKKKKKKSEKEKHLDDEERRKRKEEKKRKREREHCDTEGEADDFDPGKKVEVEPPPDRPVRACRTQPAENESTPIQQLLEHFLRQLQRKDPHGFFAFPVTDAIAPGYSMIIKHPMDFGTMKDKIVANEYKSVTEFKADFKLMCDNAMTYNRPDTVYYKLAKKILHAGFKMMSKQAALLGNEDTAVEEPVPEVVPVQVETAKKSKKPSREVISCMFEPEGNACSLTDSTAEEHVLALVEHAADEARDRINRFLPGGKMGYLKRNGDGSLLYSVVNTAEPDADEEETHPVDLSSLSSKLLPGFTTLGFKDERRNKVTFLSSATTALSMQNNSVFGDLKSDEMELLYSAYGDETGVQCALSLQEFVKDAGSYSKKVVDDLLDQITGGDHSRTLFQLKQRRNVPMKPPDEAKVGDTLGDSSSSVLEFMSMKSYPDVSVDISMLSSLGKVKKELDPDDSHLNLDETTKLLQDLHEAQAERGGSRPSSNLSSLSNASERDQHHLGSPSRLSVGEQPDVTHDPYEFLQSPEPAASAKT
Chain of UniProt Q9SZU7 (whole entry, unmodified, looked up): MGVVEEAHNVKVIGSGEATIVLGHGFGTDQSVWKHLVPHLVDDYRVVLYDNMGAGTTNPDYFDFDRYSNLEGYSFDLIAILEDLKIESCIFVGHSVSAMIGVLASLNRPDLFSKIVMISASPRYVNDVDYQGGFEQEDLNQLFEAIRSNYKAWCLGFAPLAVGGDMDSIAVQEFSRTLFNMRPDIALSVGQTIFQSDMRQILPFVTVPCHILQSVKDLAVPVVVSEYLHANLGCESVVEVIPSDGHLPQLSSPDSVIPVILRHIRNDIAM
Chain of UniProt P36969 (whole entry, looked up): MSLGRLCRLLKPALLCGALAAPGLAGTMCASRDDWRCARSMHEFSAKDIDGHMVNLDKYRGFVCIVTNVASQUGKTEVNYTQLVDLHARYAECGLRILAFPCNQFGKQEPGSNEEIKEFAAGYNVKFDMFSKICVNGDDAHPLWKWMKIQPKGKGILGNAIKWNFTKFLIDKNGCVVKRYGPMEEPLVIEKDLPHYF
Chain of UniProt O60285 (whole entry, looked up): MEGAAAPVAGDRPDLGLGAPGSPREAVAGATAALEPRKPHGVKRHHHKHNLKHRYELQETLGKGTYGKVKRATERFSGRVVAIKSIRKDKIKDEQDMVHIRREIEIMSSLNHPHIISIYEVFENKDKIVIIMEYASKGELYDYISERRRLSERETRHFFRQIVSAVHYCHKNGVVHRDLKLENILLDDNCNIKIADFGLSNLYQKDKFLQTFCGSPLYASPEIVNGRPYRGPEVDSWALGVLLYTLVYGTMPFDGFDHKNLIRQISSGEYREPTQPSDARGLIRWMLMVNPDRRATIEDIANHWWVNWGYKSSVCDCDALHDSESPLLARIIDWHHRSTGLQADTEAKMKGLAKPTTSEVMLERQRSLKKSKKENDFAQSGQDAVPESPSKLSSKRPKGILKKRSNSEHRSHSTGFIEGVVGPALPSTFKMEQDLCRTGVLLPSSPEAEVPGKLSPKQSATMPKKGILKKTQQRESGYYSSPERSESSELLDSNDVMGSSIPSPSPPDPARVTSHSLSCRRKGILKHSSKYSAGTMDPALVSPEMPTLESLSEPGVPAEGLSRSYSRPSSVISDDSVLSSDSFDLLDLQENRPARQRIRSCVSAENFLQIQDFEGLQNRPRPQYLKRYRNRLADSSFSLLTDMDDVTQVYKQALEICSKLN
Chain of UniProt Q9Y2D0 (whole entry, looked up): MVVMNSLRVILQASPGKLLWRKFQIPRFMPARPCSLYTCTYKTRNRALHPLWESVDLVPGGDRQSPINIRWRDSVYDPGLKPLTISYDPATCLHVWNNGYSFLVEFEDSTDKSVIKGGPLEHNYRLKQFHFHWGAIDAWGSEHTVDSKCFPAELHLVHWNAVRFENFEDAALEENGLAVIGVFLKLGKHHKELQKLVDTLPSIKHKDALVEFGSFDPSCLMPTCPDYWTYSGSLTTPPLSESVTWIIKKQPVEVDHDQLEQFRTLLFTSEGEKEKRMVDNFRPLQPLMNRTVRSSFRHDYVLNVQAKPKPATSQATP
Chain of UniProt Q9P289 (whole entry, looked up): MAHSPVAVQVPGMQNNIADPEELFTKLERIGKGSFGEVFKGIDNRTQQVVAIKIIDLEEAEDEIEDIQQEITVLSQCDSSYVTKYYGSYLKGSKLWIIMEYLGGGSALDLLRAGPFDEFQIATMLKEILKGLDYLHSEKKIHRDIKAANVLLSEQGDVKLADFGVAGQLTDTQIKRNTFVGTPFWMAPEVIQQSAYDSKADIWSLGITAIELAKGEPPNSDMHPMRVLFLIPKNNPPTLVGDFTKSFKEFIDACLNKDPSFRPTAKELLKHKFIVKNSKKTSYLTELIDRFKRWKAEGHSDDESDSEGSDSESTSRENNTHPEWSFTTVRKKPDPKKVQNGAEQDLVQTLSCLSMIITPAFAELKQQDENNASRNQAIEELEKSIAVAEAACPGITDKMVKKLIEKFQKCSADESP
Chain of UniProt P31641 (whole entry, unmodified, looked up): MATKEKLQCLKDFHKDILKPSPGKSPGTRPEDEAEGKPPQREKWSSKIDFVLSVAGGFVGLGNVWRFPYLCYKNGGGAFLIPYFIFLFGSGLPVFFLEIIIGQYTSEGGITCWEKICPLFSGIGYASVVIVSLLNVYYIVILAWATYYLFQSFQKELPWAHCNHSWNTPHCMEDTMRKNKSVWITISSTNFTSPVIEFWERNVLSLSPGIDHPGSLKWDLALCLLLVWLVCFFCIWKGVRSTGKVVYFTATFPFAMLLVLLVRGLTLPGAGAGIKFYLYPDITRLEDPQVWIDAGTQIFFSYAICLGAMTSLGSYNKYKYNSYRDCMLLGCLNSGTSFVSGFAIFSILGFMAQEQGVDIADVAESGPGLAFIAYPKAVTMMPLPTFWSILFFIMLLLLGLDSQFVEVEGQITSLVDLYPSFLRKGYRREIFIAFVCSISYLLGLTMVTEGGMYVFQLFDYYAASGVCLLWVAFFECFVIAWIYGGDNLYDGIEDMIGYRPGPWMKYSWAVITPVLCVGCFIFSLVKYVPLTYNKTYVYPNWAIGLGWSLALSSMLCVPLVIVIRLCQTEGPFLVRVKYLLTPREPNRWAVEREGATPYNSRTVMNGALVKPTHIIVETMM
Chain of UniProt P10636 (whole entry, looked up): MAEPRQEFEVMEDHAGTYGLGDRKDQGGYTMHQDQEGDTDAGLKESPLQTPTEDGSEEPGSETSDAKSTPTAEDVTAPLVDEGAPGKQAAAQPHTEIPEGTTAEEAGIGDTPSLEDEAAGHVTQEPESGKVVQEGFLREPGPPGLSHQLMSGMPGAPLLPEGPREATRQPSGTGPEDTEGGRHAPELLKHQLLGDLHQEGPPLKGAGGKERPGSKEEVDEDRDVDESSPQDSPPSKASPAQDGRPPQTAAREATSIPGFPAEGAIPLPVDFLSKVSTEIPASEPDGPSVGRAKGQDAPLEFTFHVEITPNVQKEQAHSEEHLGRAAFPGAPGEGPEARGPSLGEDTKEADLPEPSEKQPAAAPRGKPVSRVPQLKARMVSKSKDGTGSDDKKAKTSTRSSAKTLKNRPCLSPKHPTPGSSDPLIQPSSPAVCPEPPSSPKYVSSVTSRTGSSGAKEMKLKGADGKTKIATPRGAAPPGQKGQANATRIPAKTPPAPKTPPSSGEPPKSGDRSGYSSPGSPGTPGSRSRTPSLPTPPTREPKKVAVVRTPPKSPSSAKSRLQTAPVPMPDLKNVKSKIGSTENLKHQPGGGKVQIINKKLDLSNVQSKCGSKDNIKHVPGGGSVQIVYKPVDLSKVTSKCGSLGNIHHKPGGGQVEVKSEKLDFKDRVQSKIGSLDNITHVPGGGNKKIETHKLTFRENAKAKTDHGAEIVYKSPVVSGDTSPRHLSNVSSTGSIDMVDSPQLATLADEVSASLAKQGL

`CCOC(=O)N1CCN(C(c2cccs2)c2c(C)n(C)c3ccccc23)CC1` (stereo not shown) has a Kd of 1650 nM (Acyl-coenzyme A thioesterase 11 (ACOT11, Homo sapiens, UniProt Q8WXI4); binding, microscale thermophoresis).
`CCOC(=O)C(Cc1ccc(O)c(O)c1)OC(=O)/C=C/c1ccc(O)c(O)c1/C=C/c1ccc(O)c(O)c1` (stereo not shown) has a Kd of 5060 nM (TAGLN; binding, surface plasmon resonance).
For `Cc1c[nH]c2nccc(-c3ccc(C(=O)N[C@@H]4c5c(F)cc(C(F)F)cc5C[C@@H]4O)cn3)c12`, the Kd was 920 nM (NUAK family SNF1-like kinase 1 (NUAK1, Homo sapiens, UniProt O60285); binding, competition with immobilised ligand).
Under “percent of control”, `C=CC(=O)Nc1cccc(Cn2ncc3cnc(Nc4cnn(CCOC)c4)nc32)c1` is recorded as 94% (TSSK3 human; binding, KINOMEscan; 100 nM; lower = stronger binding).
For `COC1CN([C@H]2CC[C@H]([C@@]3(C)Oc4c(Cl)cc(C(=O)NCc5c(SC)cc(C)[nH]c5=O)c(C)c4O3)CC2)C1`, “log2 fold change” read 0.212 (RNA-seq, item: DAPK1 mouse homolog; mouse, HT-1376 xenograft, whole blood; dose not given; reference: vehicle).
`NC(=O)C[C@@H]1NC(=O)[C@H](Cc2ccc(O)cc2)NC(=O)CNC(=O)CNC(=O)[C@H](CCC(=O)O)NC(=O)[C@H](CCC(=O)O)NC(=O)[C@H](Cc2ccccc2)NC(=O)[C@@H]2CCCN2C1=O` gave a Kd of 1510 nM and 1500 nM and 1330 nM (EH domain-containing protein 1, EH domain (Homo sapiens, UniProt Q9H4M9); peptide binding, ITC; 20 °C, 0 mM NaCl).
The Kd of `Cc1ccc(-n2ccc(N)cc2=O)cc1` is reported as over 400000 nM (Phospholipid hydroperoxide glutathione peroxidase GPX4 (GPX4, Homo sapiens, UniProt P36969); binder, HSQC NMR titration; DLPC/DPC micelles).
`OC(Cc1cc(-c2ccc(C(O)C(F)(F)F)s2)sc1-c1ccc(-c2sc(-c3ccc(C(O)C(F)(F)F)s3)cc2CC(O)C(F)(F)F)s1)C(F)(F)F` (stereo not shown) has a Kd of 67 nM (Microtubule-associated protein tau, 0N4R isoform, aggregated (MAPT, Homo sapiens, UniProt P10636); binding, fluorescence; 20% sucrose tau fraction).
For `Cc1cccc2c1N(C(=O)n1ccnn1)CC2`, the Kd was 40500 nM and 63300 nM (KAI2 (Arabidopsis thaliana, UniProt Q9SZU7, S95D); ITC; S95D mutant).
The Kd of `COC(=O)CCCNC(=O)c1cc(S(N)(=O)=O)c(Cl)cc1NC1CCCCC1` is reported as 14000 nM (Carbonic anhydrase 5B, mitochondrial (CA5B, Homo sapiens, UniProt Q9Y2D0); pH 7).
`Nc1ncc(-c2cc(-c3cnn(CC(F)(F)F)c3)ncc2F)nc1C(=O)NC1CNCC(F)C1` (stereo not shown) has a remaining binding of 81% (YSK1; KINOMEscan; 1 µM; reference: DMSO control).
With `CCCC[C@H](NC(=O)COCCOCCNC(=O)CN1CCN(CC(=O)O)CCN(CC(=O)O)CC1)C(=O)N[C@H]1CC(=O)NCCCC[C@@H](C(N)=O)NC(=O)[C@H](Cc2c[nH]c3ccccc23)NC(=O)[C@H](CCCNC(=N)N)NC(=O)[C@@H](Cc2ccccc2)NC(=O)[C@H](Cc2c[nH]cn2)NC1=O` [technetium-99m labelled] the tissue uptake was 0.04 ± 0.01 %ID/g (C57 mouse, lung; intravenous, 0.037 MBq, 24 h).
With `CC(=O)NCC1CCCCN1c1nc(NCCn2nnc(C)n2)nc(N2CC3C(CCOc4cc(-c5scnc5C)ccc4CNC(=O)[C@@H]4C[C@@H](O)CN4C(=O)[C@@H](NC(=O)C4(F)CC4)C(C)(C)C)C3C2)n1` (stereo partly shown) the Kd was 769 nM (VHL/BRD9; ternary binding, SPR; together with: VCB at 2 µM).
With `O=C(CCc1ccc(O)c(O)c1/C=C/c1ccc(O)c(O)c1)OC(Cc1ccc(O)c(O)c1)C(=O)O` (stereo not shown) the Kd was 21900 nM (TAGLN; binding, surface plasmon resonance).
`CCCCCCCCO[C@@H]1O[C@H](CO)[C@H](O)[C@H](O)[C@H]1O[C@@H]1O[C@@H](C)[C@@H](O)[C@@H](O)[C@@H]1O` gave a Kd of 216000 ± 4000 nM (Histo-blood group ABO system transferase (ABO, Homo sapiens, UniProt P16442, G235S/G268A/L266M/R176G/W181M); methyl-TROSY NMR titration lineshape analysis; apo mutant enzyme).
`NCCC(=O)O` — result for Kd: “no binding” (Sodium- and chloride-dependent taurine transporter (SLC6A6, Homo sapiens, UniProt P31641, E406A)).
For `COc1ccc([C@@H](C#N)N2CCN(C(=O)c3nn(-c4ccccc4)c(=O)c4ccccc34)CC2)cc1`, the Kd was 540 nM (B- and T-lymphocyte attenuator (BTLA, Homo sapiens, UniProt Q7Z6A9); microscale thermophoresis).
`Cc1ncsc1-c1ccc(CNC(=O)[C@@H]2C[C@@H](O)CN2C(=O)[C@@H](NC(=O)C2(F)CC2)C(C)(C)C)c(OCCC2CCN(c3nc(NCC(C)(C)C4(O)CCOC4)nc(N4CCC[C@H]4Cn4ccnn4)n3)CC2)c1` (stereo partly shown) has a Kd of 884 nM (VHL/BRD9; ternary binding, SPR; together with: VCB at 2 µM).
For `C=C(NC(=O)c1csc(-c2nc3c(cc2O)-c2nc(cs2)C(=O)NC(C(C)O)C(=O)NC(=C(C)OC)c2nc(cs2)C(=O)NC2c4nc(cs4)C(=O)NC(COC(=O)c4c5c6c(cccc6n4O)COC(=O)C(OC4CC(C)(O)C(N(C)C)C(C)O4)C2OC5)c2nc-3cs2)n1)C(N)=O` (stereo not shown), “volume of distribution” read 1.82 L/kg (cynomolgus monkey, both sexes, plasma; intravenous infusion, 9 mg/kg single dose).
`Cc1ncsc1-c1ccc(C(C)NC(=O)C2CC(O)CN2C(=O)C(NC(=O)CCCCCCCCCCN2CCCC(Nc3ncc(Cl)c(Nc4ccccc4S(=O)(=O)C(C)C)n3)C2)C(C)(C)C)cc1` (stereo not shown): “log2 fold change” -1.55 (22Rv1; RNA-seq, item: ZNF701 mRNA; concentration not given; reference: DMSO).
`Cc1nn(-c2cccc(N)c2)c(=O)c2cnc(Nc3ccc(N4CCNCC4)cc3)nc12` has an IC50 of 2890 nM (Serine/threonine-protein kinase 26 (STK26, Homo sapiens, UniProt Q9P289); kinase activity, inhibitor, SelectScreen kinase profiling).
The Kd of `CCOC(=O)C(CCCCNC(=O)CCc1ccc(OC)c(OC)c1CCc1ccc(OC)c(OC)c1)Cc1ccccc1` (stereo not shown) is reported as 72400 nM (TAGLN; binding, surface plasmon resonance).

Repeated from above:
`Nc1ncc(-c2cc(-c3cnn(CC(F)(F)F)c3)ncc2F)nc1C(=O)NC1CNCC(F)C1` (stereo not shown) has a remaining binding of 81% (YSK1; KINOMEscan; 1 µM; reference: DMSO control).
With `CCCC[C@H](NC(=O)COCCOCCNC(=O)CN1CCN(CC(=O)O)CCN(CC(=O)O)CC1)C(=O)N[C@H]1CC(=O)NCCCC[C@@H](C(N)=O)NC(=O)[C@H](Cc2c[nH]c3ccccc23)NC(=O)[C@H](CCCNC(=N)N)NC(=O)[C@@H](Cc2ccccc2)NC(=O)[C@H](Cc2c[nH]cn2)NC1=O` [technetium-99m labelled] the tissue uptake was 0.04 ± 0.01 %ID/g (C57 mouse, lung; intravenous, 0.037 MBq, 24 h).
With `CC(=O)NCC1CCCCN1c1nc(NCCn2nnc(C)n2)nc(N2CC3C(CCOc4cc(-c5scnc5C)ccc4CNC(=O)[C@@H]4C[C@@H](O)CN4C(=O)[C@@H](NC(=O)C4(F)CC4)C(C)(C)C)C3C2)n1` (stereo partly shown) the Kd was 769 nM (VHL/BRD9; ternary binding, SPR; together with: VCB at 2 µM).
